Results from different studies.
Each line is one published result; not all experiments were run side by side.

With `CC(C)c1nc(CN(C)C(=O)N[C@H](C(=O)N[C@@H](Cc2ccccc2)C[C@H](O)[C@H](Cc2ccccc2)NC(=O)OCc2cncs2)C(C)C)cs1` the Cmax was 1170 ng/mL (healthy human volunteers, plasma; oral, dose not given, alone, escitalopram interaction study).
`CC[C@H](C)[C@H](NC(=O)[C@H](CC(C)C)NC(=O)[C@H](Cc1c[nH]c2ccccc12)NC(=O)[C@H](CCC(N)=O)NC(=O)[C@@H](NC(=O)[C@H](Cc1ccccc1)NC(=O)[C@H](C)NC(=O)[C@H](CCCCNC(=O)COCCOCCNC(=O)COCCOCCNC(=O)CC[C@H](NC(=O)CCCCCCCCCCCCCCCCCCC(=O)O)C(=O)O)NC(=O)[C@H](CCC(N)=O)NC(=O)[C@H](C)NC(=O)[C@@H](NC(=O)[C@H](CCCCN)NC(=O)[C@H](CC(=O)O)NC(=O)[C@H](CC(C)C)NC(=O)C(C)(C)NC(=O)[C@@H](NC(=O)[C@H](CO)NC(=O)[C@H](Cc1ccc(O)cc1)NC(=O)[C@H](CC(=O)O)NC(=O)[C@H](CO)NC(=O)[C@@H](NC(=O)[C@H](Cc1ccccc1)NC(=O)[C@@H](NC(=O)CNC(=O)[C@H](CCC(=O)O)NC(=O)C(C)(C)NC(=O)[C@@H](N)Cc1ccc(O)cc1)[C@@H](C)O)[C@@H](C)O)[C@@H](C)CC)[C@@H](C)CC)C(C)C)C(=O)N[C@@H](C)C(=O)NCC(=O)NCC(=O)N1CCC[C@H]1C(=O)N[C@@H](CO)C(=O)N[C@@H](CO)C(=O)NCC(=O)N[C@@H](C)C(=O)N1CCC[C@H]1C(=O)N1CCC[C@H]1C(=O)N1CCC[C@H]1C(=O)N[C@@H](CO)C(N)=O` gave a Cmax of 417 ng/mL (human, severe renal impairment, no dialysis, plasma; subcutaneous, 5 mg single dose, eGFR < 30, geometric mean).
For `COc1cnc(-n2cnc(C)n2)c2[nH]cc(C(=O)C(=O)N3CCN(C(=O)c4ccccc4)CC3)c12`, the Cmax was 1500 ng/mL (human; oral, dose not given, together with: fostemsavir 600 mg BID with methadone).
`COc1ccc(C[C@@H]2NC(=O)[C@H]([C@@H](C)O)NC(=O)[C@@H]3[C@@H]4CCN3C(=O)[C@@H]3Cc5cn(c6ccc(F)cc56)CCCCCCN(Cc5ccc(cc5)CCNC(=O)[C@]5(C)CCCN5C2=O)C(=O)CCC(=O)N[C@@H](C)C(=O)N[C@H](CNC(=O)CCCCC[N+](C)(C)C)C(=O)N[C@@H](Cc2cccc(c2)CNC(=O)CO4)C(=O)N3)cc1` gave a Cmax of 7.05 nM (healthy fasted humans, plasma; oral, 10 mg once daily, day 1, geometric mean, together with: sodium caprate 360 mg).
With `CC(C)C[C@H](CN)CC(=O)O` the Cmax was 3430 ng/mL (human, plasma; oral, 150 mg, geometric mean).
`O[C@H]1CCCN[C@@H]1CCCn1cnc2c(Cl)c(Cl)ccc21` gave a Cmax of 256 ng/mL (healthy human volunteers, plasma; oral, 200 mg, day 1, multiple ascending dose).
For `COC(=O)N[C@H](C(=O)N1CCC[C@H]1C(=O)Nc1ccc([C@@H]2CC[C@@H](c3ccc(NC(=O)[C@@H]4CCCN4C(=O)[C@@H](NC(=O)OC)C(C)C)cc3)N2c2ccc(C(C)(C)C)cc2)cc1)C(C)C`, the Cmax was 138 ng/mL (healthy human volunteers, plasma; oral, dose not given, alone, omeprazole interaction study).
The Cmax of `COc1ccsc1CNCC[C@@]1(c2ccccn2)CCOC2(CCCC2)C1` is reported as 34.8 ng/mL (healthy human, normal hepatic function, plasma; intravenous, 1 mg single dose, geometric mean).
`COc1ccc(C(CN(C)C)C2(O)CCCCC2)cc1` (stereo not shown) gave a Cmax of 211 ng/mL (human, plasma; oral, 225 mg/day, day 15).
For `Cc1cnc(C(=O)N[C@H]2CCCCC/C=C\[C@@H]3C[C@@]3(C(=O)NS(=O)(=O)C3CC3)NC(=O)[C@@H]3C[C@@H](Oc4nc5ccccc5c5ccccc45)CN3C2=O)cn1`, the Cmax was 230 ng/mL (healthy human volunteers, plasma; oral, dose not given, alone, pravastatin interaction study).

Excerpt of the above:
With `CC(C)c1nc(CN(C)C(=O)N[C@H](C(=O)N[C@@H](Cc2ccccc2)C[C@H](O)[C@H](Cc2ccccc2)NC(=O)OCc2cncs2)C(C)C)cs1` the Cmax was 1170 ng/mL (healthy human volunteers, plasma; oral, dose not given, alone, escitalopram interaction study).
